# Experimental data collected from several papers.
# Parts stem from different laboratories: compare values within a part only. “And” joins repeats or separate records; there may be more than shown.

# Set 1
# Target: Beta-1 adrenergic receptor (ADRB1, Homo sapiens, UniProt P08588)
# Chain of UniProt P08588 (whole entry, looked up): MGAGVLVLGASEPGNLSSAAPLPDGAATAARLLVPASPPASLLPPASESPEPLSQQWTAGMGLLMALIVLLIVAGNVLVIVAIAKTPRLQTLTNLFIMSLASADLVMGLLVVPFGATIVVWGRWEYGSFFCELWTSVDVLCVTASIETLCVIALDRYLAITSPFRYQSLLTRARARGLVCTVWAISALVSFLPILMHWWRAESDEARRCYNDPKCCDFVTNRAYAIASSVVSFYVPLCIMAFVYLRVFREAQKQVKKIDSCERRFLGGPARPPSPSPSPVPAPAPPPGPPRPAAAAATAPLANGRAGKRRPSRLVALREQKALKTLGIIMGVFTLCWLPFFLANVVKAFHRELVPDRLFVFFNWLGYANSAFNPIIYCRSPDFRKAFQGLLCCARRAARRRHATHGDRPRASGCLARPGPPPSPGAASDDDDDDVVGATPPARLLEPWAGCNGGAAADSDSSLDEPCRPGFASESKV
# Action: antagonist
Compound,IC50
Cc1cc(O)c(C(C)(C)C)cc1Sc1cc(C(C)(C)C)c(O)cc1C,14.1 µM
N#Cc1ccccc1NC(=O)c1sc2cc(F)ccc2c1Cl,≥ 100 µM
COc1cc2nc(-c3cc4c(c(OC)c3)OCCNC4)cc(C)c2cc1OC,≥ 100 µM
COc1ccccc1N1CCN(CC[C@H]2CN(C(=O)N3CCOCC3)CC[C@H]2CC(=O)O)CC1,≥ 100 µM

# Mixed results
# ERBB4: Receptor tyrosine-protein kinase erbB-4 (ERBB4, Homo sapiens, UniProt Q15303)
# Chain of UniProt Q15303 (whole entry, looked up): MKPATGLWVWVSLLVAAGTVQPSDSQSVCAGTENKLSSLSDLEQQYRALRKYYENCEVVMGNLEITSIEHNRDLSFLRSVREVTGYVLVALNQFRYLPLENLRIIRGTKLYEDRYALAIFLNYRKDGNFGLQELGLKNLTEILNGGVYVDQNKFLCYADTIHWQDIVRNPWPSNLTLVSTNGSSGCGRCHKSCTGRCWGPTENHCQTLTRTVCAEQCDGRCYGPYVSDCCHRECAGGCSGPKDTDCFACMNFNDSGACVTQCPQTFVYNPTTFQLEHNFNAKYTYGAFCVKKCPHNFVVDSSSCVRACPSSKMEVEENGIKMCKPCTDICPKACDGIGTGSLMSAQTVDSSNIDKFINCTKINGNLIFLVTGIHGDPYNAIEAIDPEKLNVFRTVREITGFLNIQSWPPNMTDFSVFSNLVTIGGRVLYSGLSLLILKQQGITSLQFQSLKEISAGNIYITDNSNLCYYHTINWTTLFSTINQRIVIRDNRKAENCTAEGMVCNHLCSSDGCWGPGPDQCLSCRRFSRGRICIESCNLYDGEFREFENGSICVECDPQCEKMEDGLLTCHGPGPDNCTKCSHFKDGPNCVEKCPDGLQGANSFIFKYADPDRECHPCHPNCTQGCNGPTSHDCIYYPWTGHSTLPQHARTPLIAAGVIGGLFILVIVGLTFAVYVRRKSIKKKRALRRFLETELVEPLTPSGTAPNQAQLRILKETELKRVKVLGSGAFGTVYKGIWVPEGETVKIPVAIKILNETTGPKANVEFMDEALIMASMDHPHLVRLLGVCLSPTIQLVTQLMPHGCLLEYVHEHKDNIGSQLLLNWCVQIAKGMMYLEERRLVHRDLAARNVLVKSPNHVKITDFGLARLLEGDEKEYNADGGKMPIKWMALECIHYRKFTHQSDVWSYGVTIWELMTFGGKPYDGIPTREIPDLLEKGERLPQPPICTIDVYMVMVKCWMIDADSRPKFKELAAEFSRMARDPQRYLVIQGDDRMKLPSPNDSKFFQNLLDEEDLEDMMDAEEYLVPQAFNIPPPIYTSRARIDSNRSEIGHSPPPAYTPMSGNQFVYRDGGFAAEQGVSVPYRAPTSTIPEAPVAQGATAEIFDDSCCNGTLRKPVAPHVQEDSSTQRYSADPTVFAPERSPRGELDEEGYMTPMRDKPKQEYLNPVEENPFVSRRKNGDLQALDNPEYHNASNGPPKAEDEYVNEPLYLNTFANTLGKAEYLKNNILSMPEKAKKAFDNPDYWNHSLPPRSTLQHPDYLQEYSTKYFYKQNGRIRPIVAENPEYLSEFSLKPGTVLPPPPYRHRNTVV
SMILES,tested on,assay,test system,setting,scale,endpoint,result
COc1ccc(S(=O)(=O)N(CCO)c2ccccc2CN(C)CC=Cc2ccc(Cl)cc2)cc1,ERBB4,"enzyme activity, inhibitor",,0.5 µM,baseline: control,remaining activity,104%
COc1ccc(-c2c(Nc3ccccn3)[nH]c3c(C4=CCCCC4)c(-c4ccccc4)nn3c2=O)cc1,,,"human, plasma","oral, 100 mg QD",,AUC(tau) extrapolated share,0%
O=C1Cc2c([nH]c3ccc([N+](=O)[O-])cc23)-c2ccccc2N1,ERBB4,"enzyme activity, inhibitor",,0.5 µM,baseline: control,remaining activity,87.3%
CC(=O)N[C@@H](Cc1c[nH]c2ccccc12)C(=O)N[C@@H](CCC(=O)C=[N+]=[N-])C(=O)OC(C)C,,UPLC-MS/MS,"EL4 tumor, C57BL/6 CES1-/- mice, tumor","subcutaneous, 0.3 mg/kg DON equivalent daily, 5 days",higher = more metabolite,putrescine level,4.97e+06 a.u. and 4.96e+06 a.u. and 4.85e+06 a.u. and 3.64e+06 a.u. and 5.41e+06 a.u. and 3.77e+06 a.u.
Nc1nc(Nc2ccc(S(N)(=O)=O)cc2)nn1C(=O)c1c(F)cccc1F,ERBB4,"enzyme activity, inhibitor",,0.5 µM,baseline: control,remaining activity,110%

# Excerpt of the above (mixed results):
SMILES,tested on,assay,test system,setting,scale,endpoint,result
CC(=O)N[C@@H](Cc1c[nH]c2ccccc12)C(=O)N[C@@H](CCC(=O)C=[N+]=[N-])C(=O)OC(C)C,,UPLC-MS/MS,"EL4 tumor, C57BL/6 CES1-/- mice, tumor","subcutaneous, 0.3 mg/kg DON equivalent daily, 5 days",higher = more metabolite,putrescine level,4.97e+06 a.u. and 4.96e+06 a.u. and 4.85e+06 a.u. and 3.64e+06 a.u. and 5.41e+06 a.u. and 3.77e+06 a.u.
